Results gathered from unrelated publications.
Parts stem from different laboratories: compare values within a part only.

Set 1
Target: Prothrombin, mature alpha-thrombin (F2, Homo sapiens, UniProt P00734)
Method: aptamer microarray, sandwich
Molecule type: DNA with 2'F-ANA
Sample: in vitro
Concentration: 200 nM
Setting: whole 15-mer aptamer, many near background
With: Cy3 exosite-II aptamer, 400 nM
Reading: higher = stronger binding
Strand: GGTTGGTGTGGTTGG
Modification	mean fluorescence intensity
2'F-ANA at 1 6 7 8 9 10 14	49.2 a.u.
2'F-ANA at 1 3 4 5 7 9 10 11 15	50.5 a.u.
2'F-ANA at 2 4 6 7 8 10 12 13	88.1 a.u.
2'F-ANA at 1 2 3 5 6 13 14 15	48.4 a.u.
2'F-ANA at 1 4 5 8 9 10 11 12 14	47.5 a.u.
2'F-ANA at 1 2 3 4 5 8 9 10 11 13 15	58.4 a.u.
2'F-ANA at 1 2 3 4 8 11	190 a.u.
2'F-ANA at 3 4 7 8 10 11 13 14 15	184 a.u.
2'F-ANA at 2 3 5 6 9 10 12 13 15	52.8 a.u.
2'F-ANA at 2 3 4 5 6 8 10 12 13 14	58.9 a.u.
2'F-ANA at 2 4 6 15	273 a.u.
2'F-ANA at 4 5 6 7 10 12 13 14 15	49.9 a.u.
2'F-ANA at 2 3 7 9 10 13 15	365 a.u.
2'F-ANA at 2 5 6 7 9 12	151 a.u.
2'F-ANA at 5 6 8 9 10 13 14 15	51.7 a.u.
2'F-ANA at 1 6 9 12 14	73.6 a.u.
2'F-ANA at 2 3 5 6 10 12 13 14	53.3 a.u.

Set 2
Target: RING finger protein unkempt homolog, zinc fingers 1-6, GST-SBP tag (UNK, Homo sapiens, UniProt Q9C0B0, residues 30-357)
UniProt Q9C0B0, sequence (30-357, looked up): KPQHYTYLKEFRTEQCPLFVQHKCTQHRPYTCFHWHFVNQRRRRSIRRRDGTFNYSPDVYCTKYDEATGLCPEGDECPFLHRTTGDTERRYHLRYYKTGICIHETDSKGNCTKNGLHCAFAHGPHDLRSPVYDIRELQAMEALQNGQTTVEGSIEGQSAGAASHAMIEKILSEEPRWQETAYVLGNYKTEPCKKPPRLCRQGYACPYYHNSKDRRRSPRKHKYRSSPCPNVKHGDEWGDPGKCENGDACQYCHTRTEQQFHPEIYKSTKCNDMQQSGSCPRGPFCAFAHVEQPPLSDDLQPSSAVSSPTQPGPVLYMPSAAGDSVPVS
Method: RNA Bind-n-Seq
Molecule type: RNA
Sample: in vitro
Concentration: not given
Setting: RNA with constant flanks, ends assumed
Baseline: input RNA pool
Reading: higher = stronger binding
All sequences stand within: GGGAGUUCUACAGUCCGACGAUC … CAACAGAGGAUUGAGCAUCA
Strand	bound/input enrichment
UGUGGAGCCAGGAAGUGUAACAUAGUCUGCACCCAGCCCCGAAGAAUCUCGGCGGUGAGCUCCGCCACCAGGGUGUGCGAGGAGCUGGGCUGUGAGAGUGGCCCUGGAGGAAGGAAUUCU	0.106 ratio
UAGUUUGUUGUUUAAAAUAAUGUAAUCAUCAAAAUGAUGCAUAUUGUUACACUACUAUUAACCCGGCUUCAGUAUAUCAGUGUUUAUUUCAUUGUGUUAAAUGUAUACUUGUAAAUAAAA	0.204 ratio
ACAAAGACAGUCAUUAAAGAAGGUGAAGAACAGCUGCAGACUCAGCACCAGAAAACGUUCACCGGGAAAAUUCCAAUUAUGCUGCGCUCCACCUACUGCCUGUUAAAUGGCUUAACAGAU	0.143 ratio
UCCCAGAGAUAAGUUCACCAAGAUGUCCAGUGACAGGCAAAGGUCGGAUGAUGAGAGCCCCCGCACCAGCAGUGGCAGUUCAGAUGCAGAUCAGCGAGACCCUGCCGCUCCAGAGCCCGA	0.12 ratio
CUAGGUUGGCAGUUGACUAGUCAGGAAACCCAUGAGCUACAAAGUUGCUUAAAGCAAAUUAUCCGAAACAUAAAAUUCAAAGCACCUCCAUGUAACACUUUUGUGGAUCUGACUUCUGCA	0.176 ratio
GGAACGGAGCAAUUUACAGCAAUGAGGGAUUUAUACAUGAAAAAUGGACAAGGAUUUGCAUCCGUUUAUUCCAUCACAGCACAGUCCACAUUUAACGAUUUACAAGACCUGAGAGAACAG	0.296 ratio
UGCACUCUUUCAGCCUCAGCAGCACCCAGCACGUGACCAACAUGAUACUUUCUUCCUGCGAGGUUGGCCGCCCGGGAGCCUGGCCAAUGUGGUAGCAGAAGUCUCAAGUCUGGAUAAAGC	0.156 ratio
AUGAUGAAAGGCGAGUUUUAUGUCAUUGAAUAUGCUGCUUGUGAUGCCACUUACAAUGAAACCGUCACAUUUGAACGACUUCGGCCUGUCAAUCAAAAUAAAACUGUCAAAAAAAAUACC	0.269 ratio
GCUGUGCUGGGUUAACAGCUUCCUUCCCUUUCUGUGUAGCAGUCUUGAAAUGUUCUGUUUAAAUCAGCCGGCUUAAUGUGUUCUGGGUAUUUAUCUCCUUGUAUUUUAAAUAUAUGUAGU	1.68 ratio
GACAGGGUCGGGGACAUCCACAUCUUGGAAGUCACGAAUAAUCUAGAACAUAAGACCUCUUUCCGUAUUUCCAAUUUUCUCAACAAGAGCAGGGGGAGUAAUUUCAGUGCAAGUCAGAGC	0.328 ratio
AGUCUUCUAUUUUUAAUAGGAACUUAGAAAAAACUUAGAAUUAUAUAUAGAGUUGUUUCCUUCCGAAACCAGAGCUAUUUAUUUGUAUUUAAAGCACUGUUUAUUAUUUGUACUGAUUCU	55.4 ratio

Set 3
Target: Sal-like protein 4, full length isoform B (SALL4, Homo sapiens, UniProt Q9UJQ4-2, residues 1-616)
Method: universal PBM
Molecule type: double-stranded DNA, one strand shown
Sample: in vitro
Concentration: not given
Setting: 8-mer, flanks averaged, mean of replicates
Reading: higher = stronger binding
Strand	E-score
ACGACAAT	0.16
AGCCAATC	-0.071
CAAGCCAA	-0.0456
AGTAGACT	0.0312
CGTTAATC	0.136
AATATCCC	0.175
ACTAACCA	0.0304
TAACCATA	0.281
GATACGAC	0.0136
GCGAACCA	-0.0458
ACTTTCAA	0.201
CGCTGGCC	-0.417
GTAAGCTA	0.107
AAAGCAGT	-0.0301
ACGCTAAG	-0.116
CATTTGGA	0.0872
GATCTCCA	-0.195
ATCTACCG	0.0987
CGAGCGAC	-0.196
AAACGGTA	0.0624

Set 4
Target: RNA binding protein fox-1 homolog 2, RRM domain, GST-SBP tag (RBFOX2, Homo sapiens, UniProt O43251-10, residues 100-194)
Method: RNA Bind-n-Seq
Molecule type: RNA
Sample: in vitro
Concentration: 365 nM
Setting: natural RNA segment, single round, ends assumed
Baseline: no-protein control
Reading: higher = stronger binding
All sequences stand within: GGGAGUUCUACAGUCCGACGAUC … UGGAAUUCUCGGGUGCCAA
Construct (chain): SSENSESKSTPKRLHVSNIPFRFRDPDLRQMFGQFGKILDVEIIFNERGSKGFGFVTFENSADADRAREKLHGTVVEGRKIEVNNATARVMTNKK
Strand	RBNS enrichment (R)
GACUCUGAUUACAGUCUGACCUAGAAAGACCAAAGAGGGGUAUGCUCAUGACAUCUGUAAAUGCUGCUGUGUCUGGAAAGAAAGUCUUUAAAUCACUGGUGAAAGUGGCA	1.25
AAAUGUGCUGUUUUGUAUAAAGCAUGAUAAUUACUUUUUAACAGAAGUUCAUUUUUAAAGAUUACUCCCUUUUCUUUCUCUCUUUUUUUUGAGACAAUUUCUCUCUUGUU	3.63
CACAGUGAAGAGAAACUGAAUUGAAUUUAUGCGAGUUUUUCGUUUCUUGUACAUUUGACAACACAUUGAGGAAAACCCUAUAAACAUAAUCAAGAGGGGACAUUUUUCAU	0.496
CCAGGAGUGGGGCCCCAACUCUUCCAAGAUACCAGCAUUCCUCAAGUCCUCCCAAAACUUCCUACCCACACCCUCUUCCCAAGGCCCUCAGGGGCAGAAAACAUCUCCUU	0.637
GGGCCUCAGAACUCUUGCUCUUCCUGGGCUGAGGGGGAAUGAGUGUUCUUGCCAUUUGCCAGCCUAAUGCGCAUGCUUUCUGCCUCUGGUAACAGGAGUGAGUGAGCCCC	1.3
CAGGGCACCCCUCAAGGACUGCCCCCGAUAGCUCUACUGUUCCCUUGGCCACGAAGGUGCCCCCCUCCCAGAUGCCCUGGCCCUAGGCCUGACUCCGGCCAGGAGGGUCA	0.251
UAUUCAUGACCAAACUAGCCCUGACACUCAGGGACCUGGGCCUCUGCUGACUGUCAGGAGCAAAACUUGAAGGUGUGGCACCGCAGGACUGGAAGAGAGUGGAACACCUU	0.787
ACCACCCCGGCCCCCUGCCCGUUCUUGAAAUGUAGGCAUCAUGCAUGUCAAACAUGAGAUGUGUGGACUGUGGCACUUGCCUGGGUCACACACGGAGGCAUCCUACCCUU	1.08
AGAGUUUUAUGAGCUGUUAAGAAUGAGGUAGUUUCUCCUAGGACCCCCCAAAGACAGUGCAAGUAAUGACCGUUUGGAUCUCAUUCGUCGAUCUUUGAUAGUAUGUUCUG	0.59
CAGUAGACCGUUGGCUCUUUCCUUUGUGCACAUGUGACCCUUGCUAAUGUGAUGGAUGUGUCUGGUAAUGCGAAACAACUUAUUUCCGUCUACUGCUCAGCACUUUGGUA	0.865
UAGCACUGAGGAUUCUUGUUCCCUUGCCUUGCCCACUGCUCCCGACCUGAAGGCUGCCAACACUCCUCUAAGGACACUGGGUCACAUGCCAGCCACCUGUUCUCGCCACC	0.948
GCCCUCAGCUCAGUUUUUGGCUCUGUUAUGGAGCCUUAGUACCCACCCCGUCUGUGUCCCCCAUGAAGGCAGCUGAGCUUUCAGAGCUGGGUUCAAAAAAAAAAAUUCCA	0.364

Set 5
Target: Histone acetyltransferase KAT6A, winged helix 1, GST fusion (KAT6A, Homo sapiens, UniProt Q92794, residues 1-85)
Method: protein binding microarray
Molecule type: double-stranded DNA, one strand shown
Sample: in vitro
Concentration: not given
Setting: 8-mer, flanks averaged, mean of 2 arrays, mostly near background
Baseline: not given
Reading: higher = stronger binding
Residues (chain): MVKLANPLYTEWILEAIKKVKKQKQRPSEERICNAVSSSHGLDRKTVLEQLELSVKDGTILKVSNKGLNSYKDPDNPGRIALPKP
Strand	E-score
ACTAGACG	0.0505
CCTGCAGC	-0.227
GTAGCGAC	0.187
CAATCGAA	-0.111
CCCCCTGA	-0.0505
CAATCTGC	-0.0389
ACGTAACA	-0.165
CTAGATAC	-0.0373
CGATTGCA	-0.114
CCGTTCGA	0.029
AATCTAAC	-0.0263
AAGCGTAG	-0.00522
CAGTTTTA	-0.184
AAAGGACG	-0.0707
AGTACACT	-0.104
GCTAAAGA	-0.113
CACGCTGA	0.0903
CTACGGTC	0.207
AAGCAACT	-0.213
CAGAGGCA	-0.233
GTATCCAA	-0.203
GATGGGTA	-0.131
ATCATTGC	-0.1
AAAAGATA	-0.0824
CAACCTGG	-0.224

For quick reference, copied from above (set 1):
Modification	mean fluorescence intensity
2'F-ANA at 1 3 4 5 7 9 10 11 15	50.5 a.u.
2'F-ANA at 2 4 6 7 8 10 12 13	88.1 a.u.
2'F-ANA at 1 2 3 5 6 13 14 15	48.4 a.u.
2'F-ANA at 1 4 5 8 9 10 11 12 14	47.5 a.u.
2'F-ANA at 1 2 3 4 5 8 9 10 11 13 15	58.4 a.u.
